Experimental data from different studies.
Protocols differ between the studies behind these lines. Several values in a cell are separate wells, animals, samples, runs or records. Numbers after ± are the reported error.
uidA: Beta-glucuronidase (uidA, Escherichia coli, UniProt P05804)
Sequence of UniProt P05804 (whole entry, looked up): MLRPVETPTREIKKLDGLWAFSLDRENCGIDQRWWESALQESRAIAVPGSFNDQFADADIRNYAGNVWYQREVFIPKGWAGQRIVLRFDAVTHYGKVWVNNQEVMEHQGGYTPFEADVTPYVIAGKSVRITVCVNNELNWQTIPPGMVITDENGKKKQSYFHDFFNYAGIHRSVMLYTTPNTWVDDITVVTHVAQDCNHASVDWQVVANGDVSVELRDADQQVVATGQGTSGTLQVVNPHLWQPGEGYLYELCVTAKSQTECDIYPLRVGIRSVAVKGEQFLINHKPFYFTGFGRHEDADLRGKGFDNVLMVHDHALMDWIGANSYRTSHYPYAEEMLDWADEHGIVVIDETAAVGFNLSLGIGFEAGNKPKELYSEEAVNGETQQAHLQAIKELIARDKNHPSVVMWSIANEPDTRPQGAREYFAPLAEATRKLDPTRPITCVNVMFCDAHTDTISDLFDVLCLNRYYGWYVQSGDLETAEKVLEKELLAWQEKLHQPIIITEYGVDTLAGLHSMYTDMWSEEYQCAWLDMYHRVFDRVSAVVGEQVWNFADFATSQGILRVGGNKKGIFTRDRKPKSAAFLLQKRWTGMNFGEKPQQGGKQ
Chymotrypsinogen A: Chymotrypsinogen A (Bos taurus, UniProt P00766)
Sequence of UniProt Q96RJ0 (whole entry, looked up): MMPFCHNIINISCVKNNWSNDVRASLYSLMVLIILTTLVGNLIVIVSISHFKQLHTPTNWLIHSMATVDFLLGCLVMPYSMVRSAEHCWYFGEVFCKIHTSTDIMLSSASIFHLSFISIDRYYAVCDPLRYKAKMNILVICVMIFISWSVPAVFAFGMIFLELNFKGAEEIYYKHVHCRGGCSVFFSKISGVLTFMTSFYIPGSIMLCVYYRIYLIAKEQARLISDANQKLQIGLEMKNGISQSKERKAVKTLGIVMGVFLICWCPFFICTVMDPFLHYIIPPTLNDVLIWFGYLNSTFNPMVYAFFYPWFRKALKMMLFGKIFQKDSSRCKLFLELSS
Sequence of UniProt O43148 (whole entry, looked up): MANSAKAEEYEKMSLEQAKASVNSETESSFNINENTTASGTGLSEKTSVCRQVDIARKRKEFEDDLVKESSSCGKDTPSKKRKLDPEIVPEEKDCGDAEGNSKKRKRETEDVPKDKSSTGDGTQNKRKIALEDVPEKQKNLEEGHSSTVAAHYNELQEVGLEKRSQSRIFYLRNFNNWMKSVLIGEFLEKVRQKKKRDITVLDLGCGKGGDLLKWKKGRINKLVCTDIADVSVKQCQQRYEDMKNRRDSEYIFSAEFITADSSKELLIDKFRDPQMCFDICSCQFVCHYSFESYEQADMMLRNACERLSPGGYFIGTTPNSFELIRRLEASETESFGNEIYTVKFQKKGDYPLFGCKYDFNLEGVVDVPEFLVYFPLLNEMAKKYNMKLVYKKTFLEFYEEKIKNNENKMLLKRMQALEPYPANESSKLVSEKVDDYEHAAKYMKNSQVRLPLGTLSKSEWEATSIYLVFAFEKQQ
Sequence of UniProt Q92769 (whole entry, looked up): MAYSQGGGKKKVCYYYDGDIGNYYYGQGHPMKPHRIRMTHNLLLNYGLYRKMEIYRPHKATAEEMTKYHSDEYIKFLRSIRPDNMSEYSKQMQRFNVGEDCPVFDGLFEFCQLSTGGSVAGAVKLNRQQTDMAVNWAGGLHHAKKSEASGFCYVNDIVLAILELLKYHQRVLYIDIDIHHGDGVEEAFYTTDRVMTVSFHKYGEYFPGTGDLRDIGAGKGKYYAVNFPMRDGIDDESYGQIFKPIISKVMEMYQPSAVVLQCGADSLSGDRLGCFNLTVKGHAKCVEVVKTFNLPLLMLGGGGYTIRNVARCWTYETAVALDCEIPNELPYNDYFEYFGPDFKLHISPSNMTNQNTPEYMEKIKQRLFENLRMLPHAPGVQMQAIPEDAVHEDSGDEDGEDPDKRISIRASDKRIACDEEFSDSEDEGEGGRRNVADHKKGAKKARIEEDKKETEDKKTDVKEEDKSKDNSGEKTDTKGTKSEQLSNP
Sequence of UniProt Q96KQ7 (whole entry, looked up): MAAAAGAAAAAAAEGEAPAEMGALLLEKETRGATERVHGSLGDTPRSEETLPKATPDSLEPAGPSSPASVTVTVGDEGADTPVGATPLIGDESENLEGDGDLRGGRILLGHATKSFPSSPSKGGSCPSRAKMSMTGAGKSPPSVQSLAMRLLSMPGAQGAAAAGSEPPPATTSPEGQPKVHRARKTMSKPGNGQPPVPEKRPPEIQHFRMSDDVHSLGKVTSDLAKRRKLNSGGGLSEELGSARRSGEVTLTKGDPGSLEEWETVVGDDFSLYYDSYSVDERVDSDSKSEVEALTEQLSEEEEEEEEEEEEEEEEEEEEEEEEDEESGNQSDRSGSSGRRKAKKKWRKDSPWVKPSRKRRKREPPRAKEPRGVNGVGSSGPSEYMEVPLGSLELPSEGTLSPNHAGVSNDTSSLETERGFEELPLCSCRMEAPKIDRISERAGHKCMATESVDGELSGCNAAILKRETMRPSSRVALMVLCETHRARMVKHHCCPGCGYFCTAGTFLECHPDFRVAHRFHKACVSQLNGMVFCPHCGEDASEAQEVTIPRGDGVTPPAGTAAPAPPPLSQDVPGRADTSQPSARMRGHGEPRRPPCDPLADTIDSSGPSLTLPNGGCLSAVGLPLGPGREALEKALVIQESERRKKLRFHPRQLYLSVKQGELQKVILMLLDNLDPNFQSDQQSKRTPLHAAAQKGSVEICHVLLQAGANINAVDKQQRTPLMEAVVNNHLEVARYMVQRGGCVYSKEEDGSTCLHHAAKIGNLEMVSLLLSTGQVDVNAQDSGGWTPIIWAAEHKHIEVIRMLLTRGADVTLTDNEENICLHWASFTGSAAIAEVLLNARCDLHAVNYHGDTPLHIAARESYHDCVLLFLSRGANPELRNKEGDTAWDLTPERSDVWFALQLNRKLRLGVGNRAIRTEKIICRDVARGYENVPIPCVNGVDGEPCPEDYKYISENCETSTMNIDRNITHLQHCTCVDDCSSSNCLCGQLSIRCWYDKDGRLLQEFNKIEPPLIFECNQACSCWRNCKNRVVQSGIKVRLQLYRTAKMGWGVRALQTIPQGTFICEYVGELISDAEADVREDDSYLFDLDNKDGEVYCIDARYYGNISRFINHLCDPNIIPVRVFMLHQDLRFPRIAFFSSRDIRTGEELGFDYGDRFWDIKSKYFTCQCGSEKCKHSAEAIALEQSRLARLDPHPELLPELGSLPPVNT
Sequence of UniProt Q13393 (whole entry, looked up): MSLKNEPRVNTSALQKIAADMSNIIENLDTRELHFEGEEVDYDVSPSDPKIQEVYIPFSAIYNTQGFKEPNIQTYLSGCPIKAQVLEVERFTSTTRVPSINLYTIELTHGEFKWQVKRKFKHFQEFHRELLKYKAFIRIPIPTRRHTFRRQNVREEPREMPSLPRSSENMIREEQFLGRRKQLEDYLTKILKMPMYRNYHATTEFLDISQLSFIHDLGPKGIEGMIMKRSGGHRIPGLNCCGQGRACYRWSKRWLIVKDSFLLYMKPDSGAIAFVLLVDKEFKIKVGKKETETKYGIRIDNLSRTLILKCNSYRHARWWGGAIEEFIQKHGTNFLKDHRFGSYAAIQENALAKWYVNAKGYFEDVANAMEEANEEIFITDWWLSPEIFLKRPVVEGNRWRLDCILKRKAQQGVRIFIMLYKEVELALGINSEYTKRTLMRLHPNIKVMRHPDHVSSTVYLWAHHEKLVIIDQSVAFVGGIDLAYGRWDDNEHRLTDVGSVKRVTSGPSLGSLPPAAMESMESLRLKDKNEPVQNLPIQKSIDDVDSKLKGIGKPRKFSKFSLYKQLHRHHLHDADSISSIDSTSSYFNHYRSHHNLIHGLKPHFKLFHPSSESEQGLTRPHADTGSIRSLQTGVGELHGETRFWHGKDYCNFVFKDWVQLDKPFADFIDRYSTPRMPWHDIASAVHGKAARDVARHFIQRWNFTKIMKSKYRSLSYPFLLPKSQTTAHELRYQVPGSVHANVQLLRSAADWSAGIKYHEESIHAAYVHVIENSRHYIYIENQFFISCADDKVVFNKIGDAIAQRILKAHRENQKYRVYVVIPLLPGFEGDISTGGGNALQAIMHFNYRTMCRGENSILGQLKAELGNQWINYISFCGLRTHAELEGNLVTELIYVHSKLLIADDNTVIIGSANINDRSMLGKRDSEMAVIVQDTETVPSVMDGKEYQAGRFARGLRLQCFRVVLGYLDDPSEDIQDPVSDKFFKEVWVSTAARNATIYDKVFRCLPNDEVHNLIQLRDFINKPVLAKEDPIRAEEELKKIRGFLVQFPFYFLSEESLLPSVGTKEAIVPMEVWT
Sequence of UniProt P58215 (whole entry, looked up): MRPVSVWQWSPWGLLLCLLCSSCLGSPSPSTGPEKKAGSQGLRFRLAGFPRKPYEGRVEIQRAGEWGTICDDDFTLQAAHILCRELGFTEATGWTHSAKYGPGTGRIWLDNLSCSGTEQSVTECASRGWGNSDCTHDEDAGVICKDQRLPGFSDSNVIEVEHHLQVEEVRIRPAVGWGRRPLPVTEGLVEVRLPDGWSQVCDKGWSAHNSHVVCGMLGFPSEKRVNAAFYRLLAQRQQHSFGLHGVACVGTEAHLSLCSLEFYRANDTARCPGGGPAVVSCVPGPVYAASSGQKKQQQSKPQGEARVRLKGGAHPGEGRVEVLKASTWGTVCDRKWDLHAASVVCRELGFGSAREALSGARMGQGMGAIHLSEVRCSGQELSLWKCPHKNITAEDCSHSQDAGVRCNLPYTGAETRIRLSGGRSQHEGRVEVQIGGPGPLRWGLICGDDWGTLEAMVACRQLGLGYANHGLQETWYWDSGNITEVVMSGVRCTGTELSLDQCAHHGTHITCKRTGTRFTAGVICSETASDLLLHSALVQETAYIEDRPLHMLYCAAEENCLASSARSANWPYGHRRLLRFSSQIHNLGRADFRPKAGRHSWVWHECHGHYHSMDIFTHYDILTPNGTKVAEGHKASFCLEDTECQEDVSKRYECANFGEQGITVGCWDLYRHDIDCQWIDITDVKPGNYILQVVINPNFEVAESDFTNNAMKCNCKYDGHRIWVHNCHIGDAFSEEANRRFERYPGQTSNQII

| Compound | target | test | test system | setting | IC50 |
| --- | --- | --- | --- | --- | --- |
| CNCP(=O)(O)O | Urease subunit alpha (Sporosarcina pasteurii, UniProt P41020) | enzyme activity, inhibitor, indophenol colorimetric |  | 20 min, pH 7.0, 37 °C, added: 50 mM urea | 228 ± 15.6 µM |
| CSCC[C@H](NC(=O)[C@H](CC(C)C)NC(=O)[C@H](Cc1cnc[nH]1)NC(=O)CNC(=O)[C@@H](NC(=O)[C@H](C)NC(=O)[C@H](Cc1c[nH]c2ccccc12)NC(=O)[C@H](CCC(N)=O)NC(=O)[C@H](N)Cc1ccccc1)C(C)C)C(N)=O | GRPR (Homo sapiens, UniProt P30550) | ligand displacement in cells, radioligand |  |  | 0.00017 µM |
| COc1ccccc1-c1nc2sc3c(c2c(=O)o1)CCC3 | Genome polyprotein, 3C protease (rhinovirus B14, UniProt P03303) | 3C protease activity, SAMDI-MS | human rhinovirus |  | 3.94 µM |
| Cc1ccc2c(n1)c(-c1cccc(S(C)(=O)=O)c1)c(C)n2C/C(F)=C/CN | LOXL3 (Homo sapiens, UniProt P58215) | enzyme activity, inhibitor, fluorescence |  | with preincubation | 0.02 µM |
| Nc1ccn(CC2COP(=O)(OCCCCCCNC(=O)CCCCC3SCC4NC(=O)NC43)CO2)c(=O)n1 (mixture of isomers) | Sodium-dependent multivitamin transporter (Canis lupus familiaris, UniProt A0A8I3MY61) | biotin uptake | MDCK-MDR1 | added: [3H]-biotin | 11.2 ± 1.48 µM |
| C1CCc2c(c(N3CCNCC3)nc3sc4c(N5CCNCC5)nnnc4c23)C1 | uidA | enzyme activity, inhibitor |  |  | 0.1 µM |
| O=C1c2ccccc2[Se](=O)N1c1ccccc1 (stereo not drawn) | HDAC2 (Homo sapiens, UniProt Q92769) | enzyme activity, inhibitor, fluorescence |  |  | > 10 µM |
| CC[N+](C)(CC)CCC[n+]1c(-c2ccccc2)c2cc(N)ccc2c2ccc(N)cc21 | RNMT (Homo sapiens, UniProt O43148) | enzyme activity, inhibitor |  |  | 5.5 µM |
| O=C(O[C@@H]1Cc2c(O)cc(O)cc2O[C@H]1c1ccc(O)c(O)c1)c1cc(O)c(O)c(O)c1 | mRNA cap guanine-N(7) methyltransferase, with RAM (RNMT, Homo sapiens, UniProt O43148) | N7-methyltransferase activity, inhibitor, Py-FLINT |  | RNMT-RAM complex, added: SAM 20 µM | 1.87 ± 0.66 µM |
| CC(C)=CCC[C@](C)(O[C@@H]1O[C@H](CO[C@@H]2OC[C@@H](O)[C@H](O)[C@H]2O)[C@@H](O)[C@H](O)[C@H]1O)C1CC[C@]2(C)C1[C@H](O)CC1[C@@]3(C)CC[C@H](O[C@@H]4O[C@H](CO)[C@@H](O)[C@H](O)[C@H]4O[C@@H]4O[C@H](CO)[C@@H](O)[C@H](O)[C@H]4O[C@@H]4OC[C@@H](O)[C@H](O)[C@H]4O)C(C)(C)C3CC[C@]12C (stereo partly drawn) | PTPN1 (Homo sapiens, UniProt P18031) | enzyme activity, inhibitor, absorbance |  | pH 7.4 | > 100 µM |
| Cc1ccc(C(C)C)cc1.[Cl][Au].[Cl][Ru][Cl].c1ccc(P(CP(c2ccccc2)c2ccccc2)c2ccccc2)cc1 | Cathepsin B (CTSB, Homo sapiens, UniProt P07858) | enzyme activity, inhibitor, fluorescence |  |  | 31 µM |
| O=C(NCCN1CCC2(CC1)C(=O)NCN2Cc1cccnc1)c1c[nH]c2ccccc12 | Phospholipase D1 (Homo sapiens, UniProt Q13393) | enzyme activity, inhibitor |  |  | > 20 µM |
| COC1CC(=O)N(C)C=CCCCC(=O)N(C)C(C(C)C)C(=O)N(C)C(CC(C)C)C(=O)OC(C(C)C)CC(C)C1 (stereo not drawn) | TACR2 (Homo sapiens, UniProt P21452) | ligand displacement, radioligand |  |  | 2.1 µM |
| C/C=C1/CN2CCc3c([nH]c4ccccc34)[C@@H]2C[C@@H]1/C(=C\OC)C(=O)OC | Htr1b (Rattus norvegicus, UniProt P28564) | ligand displacement, radioligand |  | cell membranes | 88.3 µM |
| CSCC[C@@H]1NC(=O)[C@H]([C@@H](C)O)NC(=O)[C@H](CCCNC(=N)N)NC(=O)CNC(=O)CC[C@@H](C(=O)N[C@@H](C)C(=O)N[C@@H](CCCNC(=N)N)C(=O)N[C@@H](CCCCN)C(=O)N[C@@H](CO)C(=O)N[C@H](C(=O)NCC(=O)NCC(N)=O)[C@@H](C)O)NC(=O)[C@H](CCC(N)=O)NC1=O | SETD7 (Homo sapiens, UniProt Q8WTS6) | H3K4 peptide methylation, inhibitor, MALDI-TIMS-TOF MS |  | 30 min, 37 °C, added: H3K4 peptide 10 µM, SAM 30 µM | 56.5 µM |
| CC(C)[C@H](NC(=O)c1ccc(CCc2nc3c(c(=O)[nH]2)CCC3)cc1)C(=O)NC1CNC1 | MMP14 (Homo sapiens, UniProt P50281) | enzyme activity, inhibitor |  |  | > 5 µM |
| N#Cc1c(C(F)(F)F)cc(-c2ccc(Cl)cc2)nc1SCC(=O)N1CCCC1 | TAAR1 (Homo sapiens, UniProt Q96RJ0) |  |  |  | 0.357 µM and < 0.5 µM |
| CC[C@H](C)[C@H](NC(=O)[C@@H]1CCCN1C(=O)CNC(=O)[C@H](CC(N)=O)NC(=O)CNC(=O)[C@@H]1CC(=O)O[C@H](C)[C@H](NC(=O)[C@H](Cc2ccccc2)NC(=O)[C@@H](NC(=O)[C@H](CCCCN)NC(=O)CNC(=O)[C@H](CC(=O)O)NC(=O)CNC(=O)[C@@H](NC(=O)CNC(=O)[C@H](CC(=O)O)NC(=O)[C@@H]2CCC(=O)O[C@H](C)[C@H](NC(=O)[C@@H](NC(=O)[C@H](CC(C)C)NC(=O)[C@H](CCCCN)NC(=O)[C@H](Cc3ccccc3)NC(=O)[C@H](CC(=O)O)NC(=O)CNC(=O)[C@H](CCCCN)NC(=O)[C@H](CC(C)C)NC(=O)[C@H](CO)NC(=O)CN)C(C)C)C(=O)N[C@@H](CCSC)C(=O)N[C@@H](CCCCN)C(=O)N[C@@H](C(C)C)C(=O)N3CCC[C@H]3C(=O)N2)C(C)C)C(C)C)C(=O)N[C@@H]2C(=O)N[C@@H](C)C(=O)N[C@@H](CC(C)C)C(=O)NCC(=O)N[C@@H](CCC(=O)O[C@@H]2C)C(=O)N1)C(=O)N[C@@H](Cc1ccc(O)cc1)C(=O)N[C@@H]1C(=O)N[C@@H]2C(=O)N[C@@H](CCC(N)=O)C(=O)N[C@@H](C)C(=O)N[C@@H](C(C)C)C(=O)NCC(=O)N[C@@H](CCC(=O)O[C@@H]2C)C(=O)N[C@H](C(=O)NCC(=O)NCC(=O)N[C@@H](CC(=O)O)C(=O)N[C@@H](CC(C)C)C(=O)N2CCC[C@H]2C(=O)N2CCC[C@H]2C(=O)N[C@@H](CC(C)C)C(=O)N[C@@H](Cc2ccccc2)C(=O)O)CCC(=O)O[C@@H]1C | Neutrophil elastase (ELANE, Homo sapiens, UniProt P08246) | enzyme activity, inhibitor |  |  | 12.9 µM |
| CC[C@H](C)[C@H](NC(=O)[C@@H](N)CC(=O)O)C(=O)N[C@H]1CSC(=O)[C@H](Cc2ccccc2)NC(=O)[C@H](Cc2ccc(O)cc2)NC(=O)[C@H](C)NC(=O)[C@H](CC(N)=O)NC1=O | accessory gene regulator protein C (Staphylococcus aureus, UniProt O33587) |  |  |  | 0.419 µM |
| NC(=O)c1cccc(CCN(CC[C@H](N)C(=O)O)C[C@H]2O[C@@H](n3cnc4c(N)ncnc43)[C@H](O)[C@@H]2O)c1 | EHMT2 (Homo sapiens, UniProt Q96KQ7) | enzyme activity, inhibitor, radiometric |  |  | > 50 µM |
| C1CCN(c2nnnc3c2sc2nc(N4CCOCC4)c4c(c23)CCCC4)CC1 | uidA | enzyme activity, inhibitor |  |  | > 100 µM |
| C[C@H](CS)C(=O)Nc1cccc(-n2nccn2)c1 | VIM-2 (Escherichia coli, UniProt Q5U7L7) | enzyme activity, inhibitor, fluorescence |  | with preincubation | 0.107 µM |
| COC(=O)C[C@H](NC(=O)[C@H](C)NC(=O)[C@@H](NC(=O)[C@H](CC(=O)OC)NC(=O)[C@@H](NC(=O)c1ccc2ccccc2n1)C(C)C)C(C)C)C(=O)COc1c(F)cccc1F | Caspase-3 (CASP3, Homo sapiens, UniProt P42574) | enzyme activity, inhibitor |  |  | 0.0473 µM |
| CCn1c(-c2ccc(OC)cc2)c(-c2ccc(OC)cc2)n(CC)c1=[Se+][Au-][P+](CC)(CC)CC.Cl | thioredoxin reductase (Acinetobacter baumannii, UniProt A0A0G4QN87) | thioredoxin reductase activity | carbapenem-resistant | 2 h | 1.58 µM |
| O=C(NCCN1CCC2(CC1)C(=O)NCN2Cc1ccccc1F)c1ccc2ccccc2c1 | Phospholipase D2 (Homo sapiens, UniProt O14939) | enzyme activity, inhibitor |  |  | 0.205 µM |
| Nc1nc2nc3nc(N)sc3cc2s1 | Chymotrypsinogen A | enzyme activity, inhibitor |  |  | 29 µM |
| CC1OC(OC2CC(O)C3(CO)C4C(O)CC5(C)C(C6COC(=O)C6)CCC5(O)C4CCC3(O)C2)C(O)C(O)C1O (stereo not drawn) | Na+/K+-ATPase (pig cerebral cortex) | enzyme activity, inhibitor, phosphate release colorimetric |  | 30 min, 37 °C, added: ATP-Mg 3 mM | 14.4 ± 0.842 µM |
| CCC(C)SSc1ncc[nH]1 (stereo not drawn) | Genome polyprotein, 2A protease (Human enterovirus 71, UniProt B9VUU3) | protease activity, inhibitor, FRET | Enterovirus A71 | DTT 4 mM | > 60 µM |
| Cc1cccc(-c2nc(Nc3ccncn3)c3c(C)csc3n2)n1 | Cytochrome P450 3A4 (CYP3A4, Homo sapiens, UniProt P08684) | enzyme activity, inhibitor |  | added: VG substrate | 76 µM |
| COC(=O)CC[C@@H]1NC(=O)[C@H](Cc2c[nH]c3ccccc23)NC(=O)[C@H](CC(=O)O)NC(=O)[C@H](CO)NC(=O)[C@@H]2CCCN2C(=O)[C@H](Cc2ccc(O)cc2)NC(=O)[C@@H](NC(=O)[C@H](CC(C)C)NC(=O)[C@@H](NC(=O)[C@H](CO)NC(=O)[C@H](CO)NC(=O)[C@H](CCCNC(=N)N)NC(C)=O)[C@@H](C)O)CCCCNC(=O)CC[C@@H](C(=O)N[C@@H](Cc2ccccc2)C(=O)O)NC1=O | Chymotrypsinogen A | enzyme activity, inhibitor, fluorescence |  |  | 4 µM |

A few entries again:
| Compound | target | test | test system | setting | IC50 |
| --- | --- | --- | --- | --- | --- |
| CC[C@H](C)[C@H](NC(=O)[C@@H]1CCCN1C(=O)CNC(=O)[C@H](CC(N)=O)NC(=O)CNC(=O)[C@@H]1CC(=O)O[C@H](C)[C@H](NC(=O)[C@H](Cc2ccccc2)NC(=O)[C@@H](NC(=O)[C@H](CCCCN)NC(=O)CNC(=O)[C@H](CC(=O)O)NC(=O)CNC(=O)[C@@H](NC(=O)CNC(=O)[C@H](CC(=O)O)NC(=O)[C@@H]2CCC(=O)O[C@H](C)[C@H](NC(=O)[C@@H](NC(=O)[C@H](CC(C)C)NC(=O)[C@H](CCCCN)NC(=O)[C@H](Cc3ccccc3)NC(=O)[C@H](CC(=O)O)NC(=O)CNC(=O)[C@H](CCCCN)NC(=O)[C@H](CC(C)C)NC(=O)[C@H](CO)NC(=O)CN)C(C)C)C(=O)N[C@@H](CCSC)C(=O)N[C@@H](CCCCN)C(=O)N[C@@H](C(C)C)C(=O)N3CCC[C@H]3C(=O)N2)C(C)C)C(C)C)C(=O)N[C@@H]2C(=O)N[C@@H](C)C(=O)N[C@@H](CC(C)C)C(=O)NCC(=O)N[C@@H](CCC(=O)O[C@@H]2C)C(=O)N1)C(=O)N[C@@H](Cc1ccc(O)cc1)C(=O)N[C@@H]1C(=O)N[C@@H]2C(=O)N[C@@H](CCC(N)=O)C(=O)N[C@@H](C)C(=O)N[C@@H](C(C)C)C(=O)NCC(=O)N[C@@H](CCC(=O)O[C@@H]2C)C(=O)N[C@H](C(=O)NCC(=O)NCC(=O)N[C@@H](CC(=O)O)C(=O)N[C@@H](CC(C)C)C(=O)N2CCC[C@H]2C(=O)N2CCC[C@H]2C(=O)N[C@@H](CC(C)C)C(=O)N[C@@H](Cc2ccccc2)C(=O)O)CCC(=O)O[C@@H]1C | Neutrophil elastase (ELANE, Homo sapiens, UniProt P08246) | enzyme activity, inhibitor |  |  | 12.9 µM |
| CC[C@H](C)[C@H](NC(=O)[C@@H](N)CC(=O)O)C(=O)N[C@H]1CSC(=O)[C@H](Cc2ccccc2)NC(=O)[C@H](Cc2ccc(O)cc2)NC(=O)[C@H](C)NC(=O)[C@H](CC(N)=O)NC1=O | accessory gene regulator protein C (Staphylococcus aureus, UniProt O33587) |  |  |  | 0.419 µM |
| NC(=O)c1cccc(CCN(CC[C@H](N)C(=O)O)C[C@H]2O[C@@H](n3cnc4c(N)ncnc43)[C@H](O)[C@@H]2O)c1 | EHMT2 (Homo sapiens, UniProt Q96KQ7) | enzyme activity, inhibitor, radiometric |  |  | > 50 µM |
| C1CCN(c2nnnc3c2sc2nc(N4CCOCC4)c4c(c23)CCCC4)CC1 | uidA | enzyme activity, inhibitor |  |  | > 100 µM |
| C[C@H](CS)C(=O)Nc1cccc(-n2nccn2)c1 | VIM-2 (Escherichia coli, UniProt Q5U7L7) | enzyme activity, inhibitor, fluorescence |  | with preincubation | 0.107 µM |
